# Published values from different studies.
# Compare with care: the assays were run in different laboratories. Values joined by “and” are separate records of one study, mostly repeats; a detail may differ. ± gives the spread as reported.
Structure (SMILES),target,assay,system,setting,how to read,quantity,value
CN(C)CCCNC(=O)c1cc(NC(=O)c2cc(NC(=O)c3cc(NC(=O)c4nc(NC(=O)[C@H](N)CCNC(=O)c5cc(NC(=O)c6cc(NC(=O)c7nc(NC(=O)c8nccn8C)cn7C)cn6C)co5)cn4C)cn3C)cn2C)cn1C,12-mer DNA duplex,"DNA binding, UV thermal denaturation",,"2.4 µM, pH 7.0, mismatch base pair C·G, together with: DNA duplex 2 µM",,melting temperature,70 ± 0.4 °C
C=C(CC)C(=O)c1ccc(OCC(=O)NCCCCNC(=O)COc2ccc(C(=O)C(=C)CC)c(Cl)c2Cl)c(Cl)c1Cl,"glutathione S-transferase, human",enzyme activity,SK-OV-3 cell lysate,0.2 µM,,inhibition,~35%
CC(C)C[C@H]1NC(=O)[C@@H](CC(C)C)NC(=O)[C@@](C)(NC(=O)[C@@H](CCC(=O)O)NC(=O)[C@@H](Cc2ccc(C(F)(F)F)cc2)NC(=O)[C@@H](CC(N)=O)NC(=O)[C@@]2(C)CCCC=CCCC[C@@](C)(N)C(=O)N[C@H](C)C(=O)N[C@H](Cc3c[nH]c4cc(F)ccc34)C(=O)N[C@H](Cc3ccc(O)cc3)C(=O)N2)CCCC=CCCCCCC[C@](C)(C(N)=O)NC1=O,p53,"reporter gene, activator",HCT-116 p53 reporter,"16 h, 2% FBS",,EC50,34.6 µM
C[N+](C)(CI)CC(=O)O,TMA lyase,"TMA production, whole-cell","Proteus mirabilis, wild type",,,EC50,2.6 µM
CC(=O)N[C@@H](CC(N)=O)C(=O)NCC(=O)N[C@@H](C)C(=O)N[C@@H](C)C(N)=O,Asn-Gly peptide isomerisation to succinimide,1H NMR time course,,"pH 7.4, 28 °C",,rate constant k1,0.0047 h⁻¹
O=c1c(O)cccn1CCCN1CCN(CCCn2cccc(O)c2=O)CC1,Fe(III),mono-HOPO complex formation,,"25 °C, ionic strength 0.10 M",,log β,13.6
COc1cc(CCC(C)=O)ccc1O,mAb 6-AT6,"antibody binding, indirect competitive ELISA",,together with: coating antigen 4-OVA,,IC50,> 4 µg/mL
C1=[N+]2CCC[N+]3=Cc4ccc5[n]4[Au-]23[n]2c1ccc2-c1nc2ccccc2nc1-5.F[P-](F)(F)(F)(F)F,dsDNA fragment human ACTN3 291 bp,DNA melting,,50 µM,,delta Tm,4.65 °C
CCNS(=O)(=O)c1ccc(COc2ccc3nc4ccc(=O)cc-4oc3c2)cc1,human DDR1,,HEK293 DDR1-Myc,"0.25 to 2 µM, 4 h, together with: collagen I 30 µg/mL",,DDR1 tyrosine phosphorylation,no effect
C#CCNC(=O)[C@H]1Cc2c([nH]c3ccccc23)[C@@H](c2ccc3c(c2)OCO3)N1C(=O)C=C,human SARM1,gel-based ABPP,HEK293T expressing SARM1,"20 µM, 1 h",,target engagement,active
O=C(/C=C/c1ccc(O)c(O)c1)OCCCC[P+](c1ccccc1)(c1ccccc1)c1ccccc1,"superoxide dismutase, rat",,rat mitochondria,"10 µM, 30 min",,inhibition,≤ 10%
COc1ccc2nnn(C(=O)N3COCC3(C)C)c2c1,carboxylesterases (rat),inhibitor,rat liver microsomes,10 µM,relative to: control,remaining activity,79 ± 13%
Cc1ccc(C(=O)OCCCn2ccc(=O)c(OCc3ccccc3)c2C)cc1,β-hematin formation,,,"200 µg/mL, 24 h, 60 °C",,inhibition,4%
C[N+](C)(CCl)CCO,TMA lyase,"TMA production, whole-cell","Proteus mirabilis, wild type",,,EC50,0.0089 µM
CN(C)CCCNC(=O)c1cc(NC(=O)c2cc(NC(=O)c3cc(NC(=O)c4nc(NC(=O)[C@H](N)CCNC(=O)c5cc(NC(=O)c6cc(NC(=O)c7nc(NC(=O)c8nccn8C)cn7C)co6)cn5C)cn4C)cn3C)cn2C)cn1C,12-mer DNA duplex,"DNA binding, UV thermal denaturation",,"2.4 µM, pH 7.0, match base pair T·A, together with: DNA duplex 2 µM",,melting temperature,77.1 ± 0.8 °C
[64Cu+2].c1ccc(CNCc2ccc(CN3CCCN4CCNCCCN(CC4)CC3)cc2)nc1,CXCR4 (human),,"NOD/SCID mice, U87 xenografts, liver","dose not given, 90 min post-injection, together with: 25 mg/kg AMD3465",relative to: non-blocked,uptake decrease on blocking,~50% and 55%
CCCCN1C(=O)c2cccc3c(NCCCCCCN4CCOCC4)ccc(c23)C1=O,lysosomes,confocal lambda scanning,HEK293,lysosomal micro-polarity,,emission maximum,519 nm
CC(=O)N[C@@H](CC(N)=O)C(=O)NCC(=O)N[C@@H](CCCNC(=N)N)C(=O)N[C@@H](C)C(N)=O,Asn-Gly peptide isomerisation to succinimide,1H NMR time course,,"pH 7.4, 55 °C",,rate constant k1,0.235 h⁻¹
CC(CCC(=O)NCc1ccc(C(=O)NO)cc1)C1CCC2C3C(O)CC4CC(O)CCC4(C)C3CCC12C (stereo not drawn),HDAC6,immunoblotting,cystic human cholangiocytes,"2 µM, 24 h",,acetylated α-tubulin level,increased
O=C1c2c(O)cc(O)cc2-c2c(-c3ccc(O)cc3)oc3cc(O)cc1c23,estrogen receptor alpha Y537S human,"degrader, ELISA",MCF7 ESR1 Y537S heterozygous,"10 µM, 24 h",relative to: vehicle,reduction in protein level,71.5%
CN(C)CCCNC(=O)c1cc(NC(=O)c2cc(NC(=O)c3cc(NC(=O)c4nc(NC(=O)[C@H](N)CCNC(=O)c5cc(NC(=O)c6cc(NC(=O)c7nc(NC(=O)c8nccn8C)cn7C)cn6C)cn5C)cn4C)cn3C)cn2C)cn1C,12-mer DNA duplex,"DNA binding, UV thermal denaturation",,"2.4 µM, pH 7.0, mismatch base pair C·G, together with: DNA duplex 2 µM",,melting temperature,72.3 ± 0.3 °C
Cc1cccc(O[C@H]2CCC[C@@H](C(C)CNCc3ccncc3)C2)c1 (relative stereo),mitochondrial complex I (mouse),"NADH oxidation, inhibitor",isolated mouse brain mitochondria,1 µM,,reduction of complex I activity,~15%
CO[C@@H]1[C@H](O)[C@@H](COP(=O)(O)OP(=O)([S-])OP(=O)(S)OC[C@H]2O[C@@H](n3cnc4c(=O)[nH]c(N)nc43)[C@H](O)[C@@H]2O)O[C@H]1n1c[n+](C)c2c(O)nc(N)nc21 (mixture of isomers),Schizosaccharomyces pombe Dcp1/Dcp2,substrate,,"5 to 15 min, RNA capped with compound",,decapped RNA,10 to 30%
CCCn1c(=O)c2[nH]c(-c3ccc(N(C)C(=O)c4ccc(C(F)(F)F)nc4)nc3)nc2n(CCC)c1=O,mouse adenosine A2B receptor,radioligand displacement,HEK293 membranes,,relative to: A2B over other adenosine receptors,selectivity ratio,> 400 fold
Cc1sc2ncn(CC(=O)N3CCCC3)c(=O)c2c1-c1cccc(Br)c1,"NMDA receptor, mouse","single-channel current, outside-out patch",cortical neurons,"concentration not given, holding -80 mV, together with: Ca2+ 0.5 mM",,unitary current amplitude 3,-2.27 ± 0.65 pA
Cc1ccc(NC(=O)c2c(C)oc3ccc(O)c(CN4CCCCCC4)c23)cc1,MYC Pu27 G-quadruplex DNA,PCR stop,,concentration not given,,PCR amplification inhibition,inhibited
CCCCC/C=C/C(=O)CCc1ccc(O)c(OC)c1,mAb 6-AT6,"antibody binding, indirect competitive ELISA",,together with: coating antigen 1-OVA,,IC50,> 4 µg/mL
C=C(CC)C(=O)c1ccc(OCC(=O)NCCNC(=O)COc2ccc(C(=O)C(=C)CC)c(Cl)c2Cl)c(Cl)c1Cl,"glutathione S-transferase, human",enzyme activity,SGC-7901 cell lysate,0.2 µM,,inhibition,~80%
O=C(/C=C/c1ccc(O)cc1)OCCCC[P+](c1ccccc1)(c1ccccc1)c1ccccc1,"superoxide dismutase, rat",,rat mitochondria,"10 µM, 30 min",,inhibition,≤ 10%
C[N+](C)(CBr)CCO,TMA lyase,"TMA production, whole-cell","Proteus mirabilis, wild type",,,EC50,0.0044 µM
Nc1nc2c(ncn2[C@@H]2O[C@@H]3COP(=O)(O)O[C@H]4[C@@H](F)[C@H](n5cnc6c(N)ncnc65)O[C@@H]4CSP(=O)(O)O[C@H]2[C@@H]3O)c(=O)[nH]1,STING mouse,"IRF reporter induction, agonist, luciferase",RAW Dual wild type,24 h,,EC50,0.886 ± 0.001 µM
CN(C)CCCNC(=O)c1cc(NC(=O)c2cc(NC(=O)c3cc(NC(=O)c4nc(NC(=O)[C@H](N)CCNC(=O)c5cc(NC(=O)c6cc(NC(=O)c7nc(NC(=O)c8nccn8C)cn7C)co6)co5)cn4C)cn3C)cn2C)cn1C,12-mer DNA duplex,"DNA binding, UV thermal denaturation",,"2.4 µM, pH 7.0, match base pair T·A, together with: DNA duplex 2 µM",,melting temperature,74.6 ± 1 °C
COC1CCC(Nc2nc(-c3nccn3C)nc3sc(-c4ccn(C)n4)c(-c4ccccc4)c23)C1 (stereo not drawn),Ras,"Ras-GTP complex formation, inhibitor, GTP pull-down",NCI-H1975,"6 h, together with: EGF 15 min",,IC50,1 to 3 µM

# Some of these lines once more:
Structure (SMILES),target,assay,system,setting,how to read,quantity,value
CC(=O)N[C@@H](CC(N)=O)C(=O)NCC(=O)N[C@@H](C)C(=O)N[C@@H](C)C(N)=O,Asn-Gly peptide isomerisation to succinimide,1H NMR time course,,"pH 7.4, 28 °C",,rate constant k1,0.0047 h⁻¹
CCCn1c(=O)c2[nH]c(-c3ccc(N(C)C(=O)c4ccc(C(F)(F)F)nc4)nc3)nc2n(CCC)c1=O,mouse adenosine A2B receptor,radioligand displacement,HEK293 membranes,,relative to: A2B over other adenosine receptors,selectivity ratio,> 400 fold
CN(C)CCCNC(=O)c1cc(NC(=O)c2cc(NC(=O)c3cc(NC(=O)c4nc(NC(=O)[C@H](N)CCNC(=O)c5cc(NC(=O)c6cc(NC(=O)c7nc(NC(=O)c8nccn8C)cn7C)cn6C)cn5C)cn4C)cn3C)cn2C)cn1C,12-mer DNA duplex,"DNA binding, UV thermal denaturation",,"2.4 µM, pH 7.0, mismatch base pair C·G, together with: DNA duplex 2 µM",,melting temperature,72.3 ± 0.3 °C
C=C(CC)C(=O)c1ccc(OCC(=O)NCCCCNC(=O)COc2ccc(C(=O)C(=C)CC)c(Cl)c2Cl)c(Cl)c1Cl,"glutathione S-transferase, human",enzyme activity,SK-OV-3 cell lysate,0.2 µM,,inhibition,~35%
